Published values gathered from unrelated publications.
Compare with care: the assays were run in different laboratories. ± gives the spread as reported.

SMILES | test | test system | conditions | scale | endpoint | result
C[C@@H]1N=C(c2ccccc2F)c2cc(Br)ccc2NC1=O | rapid equilibrium dialysis | rat plasma | 5 µM, 4 h, 37 °C |  | fraction unbound | 0.0449
N[C@]1(c2ccccc2Cl)C[C@@H](O)CCC1=O |  | female CD-1 mice, plasma | intraperitoneal, 5 mg/kg |  | dose-normalized Cmax | 267 ± 8.5 ng/mL per mg/kg
CC[C@@H](CO)NCCN[C@@H](CC)CO |  | THP-1 caseum surrogate | 5 µM, 4 h, 37 °C |  | fraction unbound | 0.388 ± 0.056
Cc1ncc2n1-c1ccc(Cl)cc1C(c1ccccc1F)=NC2 |  | healthy human volunteers, plasma | oral, 7.5 mg single dose, geometric mean, alone |  | AUC(0-t) | 93.9 ng·h/mL
Cc1ncc2n1-c1ccc(Cl)cc1C(c1ccccc1F)=NC2 |  | human CYP3A5*1/*1, serum | geometric mean, added: ketoconazole 400 mg |  | terminal half-life | 8.83 h
CN1C(=O)CC(=O)N(c2ccccc2)c2cc(Cl)ccc21 |  | CF-1 mouse, brain | intraperitoneal, 17 mg/kg |  | Cmin | 0.012 ng/mg
CCC(=O)C(CC(C)N(C)C)(c1ccccc1)c1ccccc1 (centres unmarked) |  | human, plasma | oral, 40 mg, day 1, steady state, dose-normalized, alone |  | AUC(0-tau) | 5700 ng·h/mL
CCCC(C(=O)c1ccc(O)c(O)c1)N1CCCC1 (centres unmarked) |  | human plasma | 25 µg/L, 24 h, Medium QC, room temperature | baseline: freshly fortified plasma | stability | 3.8 % difference
Cc1ncc2n1-c1ccc(Cl)cc1C(c1ccccc1F)=NC2 |  | human, plasma | oral, 2 mg, geometric mean, added: fenebrutinib 200 mg twice daily |  | AUC(0-t) | 38.3 ng·h/mL
O=C1CCCO1 | item: ataxia, vomiting, tremor | baboon (Papio anubis) | two highest doses |  | time window of effects | 0.5 to 5 h
CCCCCCCCCCC(=O)O[C@H]1CC[C@H]2[C@@H]3CCC4=CC(=O)CC[C@]4(C)[C@H]3CC[C@]12C |  | human blood | 300 ng/mL, 30 min, 4 °C, NaF 5 mg/mL, K2 oxalate 4 mg/mL |  | testosterone concentration | 388 ng/dL
Nc1ccc(C(=O)O)c(O)c1 |  | THP-1 caseum surrogate | 5 µM, 4 h, 37 °C |  | fraction unbound | 0.511 ± 0.112
NC1(c2ccccc2Cl)CCCCC1=O (racemic) |  | male Wistar rats, plasma | intraperitoneal, 40 mg/kg single dose, up to 48 h |  | plasma concentration | ≥ 5 ng/mL
Cc1ncc(OC[C@@]2(c3cccc(F)c3)C[C@H]2C(=O)Nc2ccc(F)cn2)c(C)n1 |  | healthy human | 10 mg, added: fluconazole |  | adverse events leading to discontinuation | 0%
CN[C@@H](C)Cc1ccccc1 | seizure incidence | C57Bl/6J mice, both sexes | intraperitoneal, 2 h, dose as salt |  | ED50 | 97.1 mg/kg
COc1cccc(C2(O)CCCCC2CN(C)C)c1 (centres unmarked) | visual analog scale | healthy male non-drug abusers | oral, 50 mg, unit not given | baseline: placebo | take drug again | -2
CS(=O)(=O)N1CCC(Oc2ccc(CC(=O)N3CCC(N4C(=O)CCc5ccccc54)CC3)c(OC/C=C/[125I])c2)CC1 | radio-HPLC, item: free iodide-125 | 10% ethanol in saline | 45 days, storage stability |  | decomposition | 15 to 20%
CN1CC[C@@]23CCCC[C@@H]2[C@@H]1Cc1ccc(O)cc13 |  | Wistar rat, both sexes, plasma | oral, 5 mg/kg DEM, DEM 2 h after pretreatment, added: TCE 400 mg/kg single pretreatment |  | MRT(0-inf) | 5.05 ± 2.34 h

SMILES | test | test system | conditions | scale | endpoint | result
O=C([C@@H](O)CO)N1CC=C(c2c(F)cc(N3C[C@H](COc4ccon4)OC3=O)cc2F)CC1 |  | THP-1 caseum surrogate | 5 µM, 4 h, 37 °C |  | fraction unbound | 0.176 ± 0.045
CN([11CH3])C(=O)C(CCN1CCC(O)(c2ccc(Cl)cc2)CC1)(c1ccccc1)c1ccccc1 | ultrafiltration | rhesus monkey (Macaca mulatta), arterial plasma | room temperature |  | plasma free fraction | 0.154 ± 0.018
CCCC(C(=O)c1ccc2c(c1)OCO2)N1CCCC1 (centres unmarked) |  | human plasma | 0.75 µg/L, 24 h, Low QC, room temperature | baseline: freshly fortified plasma | stability | 10.7 % difference
N[C@@]1(c2ccccc2Cl)CCC[C@H](O)C1=O |  | male CD-1 mice, plasma | intraperitoneal, 5 mg/kg |  | dose-normalized Cmax | 189 ± 23 ng/mL per mg/kg
C[C@H]1COc2c(N3CCN(C)CC3)c(F)cc3c(=O)c(C(=O)O)cn1c23 |  | THP-1 caseum surrogate | 5 µM, 4 h, 37 °C |  | fraction unbound | 0.163 ± 0.031
COc1ccc2c(c1)[C@]13CCCC[C@@H]1[C@H](C2)N(C)CC3 |  | Wistar rat, both sexes, plasma | oral, 5 mg/kg, 2 h after pretreatment, added: single TCE 100 mg/kg |  | CL/F | 333 ± 167 mL/min/kg
CCCC(C(=O)c1ccc(O)c(OC)c1)N1CCCC1 (centres unmarked) |  | human plasma | 0.75 µg/L, 24 h, Low QC, room temperature | baseline: freshly fortified plasma | stability | 14.2 % difference
C=C1C[C@@H]2[C@H](CC[C@]3(C)C(=O)CC[C@@H]23)[C@@]2(C)C=CC(=O)C=C12 | LC-MS/MS | postmenopausal breast cancer women, plasma | oral, 25 mg/day, 2 h, CYP3A4*22 non-carriers, White only |  | median plasma concentration | 7.8 ng/mL
Cc1ncc2n1-c1ccc(Cl)cc1C(c1ccccc1F)=NC2 |  | healthy human, plasma | oral, 2 mg, added: efavirenz 50 mg, no ritlecitinib |  | AUC(0-t) | 19.8 ng·h/mL
CNC(C)Cc1ccc2c(c1)OCO2 (racemic) |  | human | oral, 1.5 mg/kg, unit not given | baseline: pre-dose baseline | diastolic pressure change | 11.5
O=c1[nH]c2ccccc2n1CCCN1CCC(n2c(=O)[nH]c3cc(Cl)ccc32)CC1 | in situ brain perfusion | CF-1 mouse, wild type, male | 1 µM, pH 7.4 |  | brain uptake clearance Kin | 3.1 mL/100 g/min
CNC(C)C(=O)c1ccc(C)cc1 (centres unmarked) |  | C57BL/6 mouse | intraperitoneal, single dose |  | LD50 | 143 mg/kg
N[C@]1(c2ccccc2Cl)CC[C@@H](O)CC1=O |  | male CD-1 mice, plasma | intraperitoneal, 5 mg/kg |  | dose-normalized Cmax | 443 ± 20.1 ng/mL per mg/kg
Cc1ncc2n1-c1ccc(Cl)cc1C(c1ccccc1F)=NC2 |  | healthy male, plasma | oral, 7.5 mg, alone, geometric mean, day 1 |  | AUC(0-t) | 111 ng·h/mL
C[C@H]1CNCCc2ccc(Cl)cc21 |  | Sprague-Dawley rat, male, plasma | subcutaneous, 0.5 mg/kg, 180 min |  | plasma concentration | 3.03 ± 0.18 ng/mL
CNC(C)Cc1ccc2c(c1)OCO2 (centres unmarked) | seizure incidence | C57Bl/6J mice, both sexes | intraperitoneal, 2 h, dose as salt |  | ED50 | 138 mg/kg
CCOC(=O)c1cncn1[C@H](C)c1ccccc1 | serum corticosterone, inhibitor | Sprague-Dawley rat | intravenous, 15 min, 50% reduction, added: ACTH1-24 |  | ID50 | 0.46 ± 0.05 mg/kg

Excerpt of the above:
SMILES | test | test system | conditions | scale | endpoint | result
CCCC(C(=O)c1ccc(O)c(OC)c1)N1CCCC1 (centres unmarked) |  | human plasma | 0.75 µg/L, 24 h, Low QC, room temperature | baseline: freshly fortified plasma | stability | 14.2 % difference
C=C1C[C@@H]2[C@H](CC[C@]3(C)C(=O)CC[C@@H]23)[C@@]2(C)C=CC(=O)C=C12 | LC-MS/MS | postmenopausal breast cancer women, plasma | oral, 25 mg/day, 2 h, CYP3A4*22 non-carriers, White only |  | median plasma concentration | 7.8 ng/mL
Cc1ncc2n1-c1ccc(Cl)cc1C(c1ccccc1F)=NC2 |  | healthy human, plasma | oral, 2 mg, added: efavirenz 50 mg, no ritlecitinib |  | AUC(0-t) | 19.8 ng·h/mL
CNC(C)Cc1ccc2c(c1)OCO2 (racemic) |  | human | oral, 1.5 mg/kg, unit not given | baseline: pre-dose baseline | diastolic pressure change | 11.5
